Published values gathered from unrelated publications.
Each numbered part is a random draw from the data of one study; scales do not carry over between parts. Several values in a cell are separate wells, animals, samples, runs or records.
Sequence of UniProt P15735 (whole entry, looked up): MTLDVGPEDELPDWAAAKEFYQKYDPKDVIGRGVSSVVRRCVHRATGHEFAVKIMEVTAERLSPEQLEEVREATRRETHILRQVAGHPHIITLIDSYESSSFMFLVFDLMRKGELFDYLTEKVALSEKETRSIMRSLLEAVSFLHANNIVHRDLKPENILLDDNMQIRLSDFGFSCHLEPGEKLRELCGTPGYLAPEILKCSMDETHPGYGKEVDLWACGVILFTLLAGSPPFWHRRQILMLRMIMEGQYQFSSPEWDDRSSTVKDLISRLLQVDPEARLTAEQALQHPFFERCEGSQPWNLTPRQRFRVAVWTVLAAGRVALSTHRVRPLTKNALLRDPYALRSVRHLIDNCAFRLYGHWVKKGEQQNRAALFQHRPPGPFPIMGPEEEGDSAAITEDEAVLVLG
Sequence of UniProt Q5VT25 (whole entry, looked up): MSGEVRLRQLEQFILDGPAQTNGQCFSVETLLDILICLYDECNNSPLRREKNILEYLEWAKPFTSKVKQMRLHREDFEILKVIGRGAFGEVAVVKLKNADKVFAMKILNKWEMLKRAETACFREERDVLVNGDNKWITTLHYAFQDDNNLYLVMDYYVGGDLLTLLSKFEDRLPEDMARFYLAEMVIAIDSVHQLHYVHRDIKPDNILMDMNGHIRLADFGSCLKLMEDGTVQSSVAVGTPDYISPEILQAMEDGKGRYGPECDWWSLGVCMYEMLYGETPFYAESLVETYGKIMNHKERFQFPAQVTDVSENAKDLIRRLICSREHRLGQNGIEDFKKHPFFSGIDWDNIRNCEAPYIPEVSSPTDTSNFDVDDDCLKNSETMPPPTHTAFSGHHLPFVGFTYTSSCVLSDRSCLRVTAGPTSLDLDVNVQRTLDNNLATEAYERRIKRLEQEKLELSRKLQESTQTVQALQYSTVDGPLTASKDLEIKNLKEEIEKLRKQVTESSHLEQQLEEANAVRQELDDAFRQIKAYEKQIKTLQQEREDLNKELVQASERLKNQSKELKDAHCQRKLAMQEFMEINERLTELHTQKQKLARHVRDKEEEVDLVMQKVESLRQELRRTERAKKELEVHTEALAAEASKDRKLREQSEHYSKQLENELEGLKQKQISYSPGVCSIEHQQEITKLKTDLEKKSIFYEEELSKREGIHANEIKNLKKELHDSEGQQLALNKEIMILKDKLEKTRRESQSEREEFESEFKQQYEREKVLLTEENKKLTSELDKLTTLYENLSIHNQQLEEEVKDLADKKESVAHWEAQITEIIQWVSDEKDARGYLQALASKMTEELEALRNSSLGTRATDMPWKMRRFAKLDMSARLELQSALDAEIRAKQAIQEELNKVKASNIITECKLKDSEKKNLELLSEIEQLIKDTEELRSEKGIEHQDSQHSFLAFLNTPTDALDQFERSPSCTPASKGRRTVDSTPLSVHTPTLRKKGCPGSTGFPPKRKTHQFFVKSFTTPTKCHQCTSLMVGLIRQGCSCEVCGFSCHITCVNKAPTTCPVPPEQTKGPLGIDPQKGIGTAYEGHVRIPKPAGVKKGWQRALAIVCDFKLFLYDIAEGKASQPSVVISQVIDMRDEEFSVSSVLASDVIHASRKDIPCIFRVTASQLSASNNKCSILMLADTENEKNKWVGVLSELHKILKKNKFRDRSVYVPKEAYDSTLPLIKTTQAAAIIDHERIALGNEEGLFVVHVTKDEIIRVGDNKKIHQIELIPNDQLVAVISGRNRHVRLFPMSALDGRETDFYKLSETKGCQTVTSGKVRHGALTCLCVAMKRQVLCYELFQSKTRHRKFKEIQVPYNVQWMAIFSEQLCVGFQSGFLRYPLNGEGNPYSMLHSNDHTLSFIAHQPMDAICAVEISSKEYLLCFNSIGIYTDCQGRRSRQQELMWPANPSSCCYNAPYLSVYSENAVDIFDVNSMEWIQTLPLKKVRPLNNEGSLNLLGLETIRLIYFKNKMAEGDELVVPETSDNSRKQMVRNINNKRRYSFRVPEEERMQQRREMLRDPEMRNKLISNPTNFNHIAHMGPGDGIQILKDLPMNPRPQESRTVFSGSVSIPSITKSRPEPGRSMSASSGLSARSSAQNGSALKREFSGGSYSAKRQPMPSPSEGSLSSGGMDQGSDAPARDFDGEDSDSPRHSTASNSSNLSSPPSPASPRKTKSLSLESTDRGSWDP
Sequence of UniProt Q16512 (whole entry, looked up): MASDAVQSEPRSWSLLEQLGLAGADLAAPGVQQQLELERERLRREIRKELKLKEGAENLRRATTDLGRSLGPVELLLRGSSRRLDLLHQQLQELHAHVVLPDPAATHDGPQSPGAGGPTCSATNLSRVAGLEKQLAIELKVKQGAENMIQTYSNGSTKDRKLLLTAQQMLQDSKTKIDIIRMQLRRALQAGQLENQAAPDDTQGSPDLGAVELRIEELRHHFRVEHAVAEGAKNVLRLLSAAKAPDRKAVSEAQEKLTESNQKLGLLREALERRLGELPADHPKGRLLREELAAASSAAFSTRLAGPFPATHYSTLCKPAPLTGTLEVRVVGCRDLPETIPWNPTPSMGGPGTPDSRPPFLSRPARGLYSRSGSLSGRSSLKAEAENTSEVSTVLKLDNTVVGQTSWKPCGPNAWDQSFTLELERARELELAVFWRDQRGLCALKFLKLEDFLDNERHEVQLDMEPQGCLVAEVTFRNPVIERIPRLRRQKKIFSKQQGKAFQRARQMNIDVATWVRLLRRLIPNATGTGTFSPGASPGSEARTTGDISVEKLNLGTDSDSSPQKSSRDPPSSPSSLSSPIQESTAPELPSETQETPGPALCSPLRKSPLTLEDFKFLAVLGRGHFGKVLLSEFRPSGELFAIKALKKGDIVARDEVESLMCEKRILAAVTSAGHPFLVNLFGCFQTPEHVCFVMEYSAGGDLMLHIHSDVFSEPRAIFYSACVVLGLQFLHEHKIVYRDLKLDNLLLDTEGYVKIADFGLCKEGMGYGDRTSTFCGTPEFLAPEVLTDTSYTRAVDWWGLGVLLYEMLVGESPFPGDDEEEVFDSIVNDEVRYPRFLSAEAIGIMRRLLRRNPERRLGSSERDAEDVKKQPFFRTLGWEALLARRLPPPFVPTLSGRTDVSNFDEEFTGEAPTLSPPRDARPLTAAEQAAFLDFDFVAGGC
Sequence of UniProt Q15208 (whole entry, looked up): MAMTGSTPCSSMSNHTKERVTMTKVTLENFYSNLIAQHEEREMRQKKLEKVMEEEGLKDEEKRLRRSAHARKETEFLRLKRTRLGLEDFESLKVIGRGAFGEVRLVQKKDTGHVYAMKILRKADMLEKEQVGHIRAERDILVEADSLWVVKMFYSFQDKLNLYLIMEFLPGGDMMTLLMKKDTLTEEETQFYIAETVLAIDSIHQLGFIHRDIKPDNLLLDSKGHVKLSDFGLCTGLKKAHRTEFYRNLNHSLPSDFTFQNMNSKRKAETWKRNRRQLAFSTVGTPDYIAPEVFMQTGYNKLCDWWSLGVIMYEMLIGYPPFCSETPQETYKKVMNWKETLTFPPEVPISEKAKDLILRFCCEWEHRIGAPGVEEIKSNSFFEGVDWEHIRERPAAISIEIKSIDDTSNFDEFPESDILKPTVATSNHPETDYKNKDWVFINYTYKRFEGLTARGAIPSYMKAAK
Sequence of UniProt Q9BXA7 (whole entry, looked up): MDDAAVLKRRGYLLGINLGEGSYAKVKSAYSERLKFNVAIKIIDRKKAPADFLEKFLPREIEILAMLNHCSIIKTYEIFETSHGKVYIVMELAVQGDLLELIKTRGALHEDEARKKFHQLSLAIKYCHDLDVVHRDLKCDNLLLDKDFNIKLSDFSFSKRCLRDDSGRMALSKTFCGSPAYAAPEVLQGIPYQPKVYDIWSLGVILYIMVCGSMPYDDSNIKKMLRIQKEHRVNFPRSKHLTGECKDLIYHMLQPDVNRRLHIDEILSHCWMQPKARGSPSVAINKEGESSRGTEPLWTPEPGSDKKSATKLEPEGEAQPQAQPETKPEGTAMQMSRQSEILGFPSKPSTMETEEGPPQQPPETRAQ
Sequence of UniProt P0C1S8 (whole entry, looked up): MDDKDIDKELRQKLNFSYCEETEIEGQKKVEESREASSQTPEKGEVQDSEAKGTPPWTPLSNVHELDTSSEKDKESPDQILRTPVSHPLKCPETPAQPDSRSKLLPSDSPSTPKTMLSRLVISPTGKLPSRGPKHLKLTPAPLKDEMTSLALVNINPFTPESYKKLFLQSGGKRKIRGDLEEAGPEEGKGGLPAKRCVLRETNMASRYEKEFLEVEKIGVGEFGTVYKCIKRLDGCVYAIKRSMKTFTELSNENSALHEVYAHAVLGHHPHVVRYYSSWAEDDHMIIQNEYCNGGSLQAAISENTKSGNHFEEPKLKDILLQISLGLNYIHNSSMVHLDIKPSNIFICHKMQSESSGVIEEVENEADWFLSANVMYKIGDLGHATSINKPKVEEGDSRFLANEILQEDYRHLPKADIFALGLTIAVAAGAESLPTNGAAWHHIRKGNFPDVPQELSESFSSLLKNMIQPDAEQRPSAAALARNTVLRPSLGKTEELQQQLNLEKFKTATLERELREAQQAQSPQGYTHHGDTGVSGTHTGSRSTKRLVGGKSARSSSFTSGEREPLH
Sequence of UniProt Q9Y6E0 (whole entry, looked up): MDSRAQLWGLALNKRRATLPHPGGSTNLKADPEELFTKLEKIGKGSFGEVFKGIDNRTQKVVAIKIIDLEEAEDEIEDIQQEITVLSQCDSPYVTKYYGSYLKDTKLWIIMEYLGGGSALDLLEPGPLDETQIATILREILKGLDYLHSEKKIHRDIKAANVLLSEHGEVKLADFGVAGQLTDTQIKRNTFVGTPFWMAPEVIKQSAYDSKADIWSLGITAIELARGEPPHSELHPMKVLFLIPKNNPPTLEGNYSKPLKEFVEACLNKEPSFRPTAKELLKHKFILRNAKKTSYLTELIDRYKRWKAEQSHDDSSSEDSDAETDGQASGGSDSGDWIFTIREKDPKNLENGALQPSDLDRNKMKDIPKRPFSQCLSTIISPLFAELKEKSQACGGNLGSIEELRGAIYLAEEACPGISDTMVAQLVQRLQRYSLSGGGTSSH

Set 1
Host: mouse
Sample: microsomes or S9
Tested at: 2 µM
Time: 0.5 h
SMILES | remaining compound
CC(C)c1c(Cl)nc(N(C)C)nc1N1CCN(S(C)(=O)=O)CC1 | 24.6%
Cc1ccc2cc(CNCC3COCCO3)c3nnnn3c2c1 (stereo not shown) | 94.2%
CC1(C)Cc2c(sc3[nH]c(=O)n(C4CCCCC4)c(=O)c23)CO1 | 3.43%
Cc1ccccc1NCc1cc(=O)n2nc(-c3ccccc3C)nc2[nH]1 | 43.1%
COc1c(C)cnc(Cn2cnc3oc(C)c(C)c3c2=O)c1C | 0.111%
CCOc1ccc(CCNS(=O)(=O)c2ccc3c(c2)C(C)(C)C(=O)N3)cc1OCC | < 1%
Cc1cc(C[C@@H]2COC[C@@H]2NC(=O)c2cc(=O)n(-c3ccccc3)[nH]2)on1 | 65.7%
CCC(CC)C(=O)Nc1c2c(nc3c1CCC3)CCCC2 | 26.8%

Set 2
Structure (SMILES): CC(C)c1nn(-c2c(Cl)cccc2Cl)c2nc(Cc3ccc(OCCO)cc3)[nH]c(=O)c12
Effect on: enzyme activity
Mode: inhibitor
Tested at: 0.5 µM
Baseline: control
target | remaining activity [%]
RAC-alpha serine/threonine-protein kinase (AKT1, Homo sapiens, UniProt P31749) | 94.7
PAS domain-containing serine/threonine-protein kinase (PASK, Homo sapiens, UniProt Q96RG2) | 95.7
Serine/threonine-protein kinase TAO3 (TAOK3, Homo sapiens, UniProt Q9H2K8) | 91.3
Tyrosine-protein kinase ITK/TSK (ITK, Homo sapiens, UniProt Q08881) | 98.6
Insulin receptor (INSR, Homo sapiens, UniProt P06213) | 100
Tyrosine-protein kinase Fyn (FYN, Homo sapiens, UniProt P06241) | 102
Homeodomain-interacting protein kinase 1 (HIPK1, Homo sapiens, UniProt Q86Z02) | 102
Proto-oncogene tyrosine-protein kinase Src (SRC, Homo sapiens, UniProt P12931) | 86.7
Tyrosine-protein kinase Fer (FER, Homo sapiens, UniProt P16591) | 89.4
LIM domain kinase 1 (LIMK1, Homo sapiens, UniProt P53667) | 107
Cyclin-dependent kinase 3, with cyclin E (CDK3, Homo sapiens, UniProt Q00526) | 6.14
Megakaryocyte-associated tyrosine-protein kinase (MATK, Homo sapiens, UniProt P42679) | 91.1
Serine/threonine-protein kinase 25 (STK25, Homo sapiens, UniProt O00506) | 68.1
Serine/threonine-protein kinase NLK (NLK, Homo sapiens, UniProt Q9UBE8) | 97.6
MAP/microtubule affinity-regulating kinase 3 (MARK3, Homo sapiens, UniProt P27448) | 92.2
Vascular endothelial growth factor receptor 3 (FLT4, Homo sapiens, UniProt P35916) | 103
Serine/threonine-protein kinase MRCK alpha (CDC42BPA, Homo sapiens, UniProt Q5VT25) | 89.5
ALK tyrosine kinase receptor (ALK, Homo sapiens, UniProt Q9UM73) | 103
Serine/threonine-protein kinase Nek11 (NEK11, Homo sapiens, UniProt Q8NG66) | 109
Tyrosine-protein kinase Fgr (FGR, Homo sapiens, UniProt P09769) | 92
Serine/threonine-protein kinase N1 (PKN1, Homo sapiens, UniProt Q16512) | 97
cAMP-dependent protein kinase catalytic subunit PRKX (PRKX, Homo sapiens, UniProt P51817) | 96.3

Set 3
Cell line: A-375
Tested at: 100 µM
Time: 18 h
SMILES | viability
C/C=C1\[C@H]2C=C(C)C[C@]1(N)c1ccc(=O)[nH]c1C2 | 104%
Cc1nc(Nc2ncc(C(=O)Nc3c(C)cccc3Cl)s2)cc(N2CCN(CCO)CC2)n1 | 22.5% and 25.7%
Cc1cnc(C(=O)O)c[n+]1[O-] | 84.3%
CN(C)CCc1c[nH]c2ccc(Cn3cncn3)cc12 | 103%
CN[C@@H]1[C@H](O[C@H]2[C@H](O[C@H]3[C@H](O)[C@@H](O)[C@H](NC(=N)N)[C@@H](O)[C@@H]3NC(=N)N)O[C@@H](C)[C@]2(O)CO)O[C@@H](CO)[C@H](O)[C@H]1O | 92.7%
CC1=C(C(=O)OC(C)C)C(c2cccc([N+](=O)[O-])c2)C(C(=O)OC2CN(C(c3ccccc3)c3ccccc3)C2)=C(N)N1 (stereo not shown) | 12.1%
Cc1cn(-c2cc(NC(=O)c3ccc(C)c(Nc4nccc(-c5cccnc5)n4)c3)cc(C(F)(F)F)c2)cn1 | 8.75%
CO[C@@]1(NC(=O)Cc2cccs2)C(=O)N2C(C(=O)O)=C(COC(N)=O)CS[C@@H]21 | 90.2%

Set 4
Structure (SMILES): CS(=O)(=O)c1cc(C2(NC(=O)c3cncc4c3cnn4-c3ccc(F)cc3)CC2)ccn1
Effect on: cell-free assay
Technique: competition with immobilised ligand
Tested at: 1 µM
target | remaining binding [%]
Wee1-like protein kinase 2 (WEE2, Homo sapiens, UniProt P0C1S8) | 100
SRSF protein kinase 3 (SRPK3, Homo sapiens, UniProt Q9UPE1) | 100
Receptor-type tyrosine-protein kinase FLT3 (FLT3, Homo sapiens, UniProt P36888, D835V/ITD) | 70
Phosphorylase b kinase gamma catalytic chain, liver/testis isoform (PHKG2, Homo sapiens, UniProt P15735) | 100
Tyrosine-protein kinase ABL1, phosphorylated (ABL1, Homo sapiens, UniProt P00519, Y253F) | 91
Tyrosine-protein kinase ABL1, non-phosphorylated (ABL1, Homo sapiens, UniProt P00519, Q252H) | 80
Myosin light chain kinase, smooth muscle (MYLK, Homo sapiens, UniProt Q15746) | 94
Mitogen-activated protein kinase kinase kinase 19 (MAP3K19, Homo sapiens, UniProt Q56UN5) | 91
Mitogen-activated protein kinase kinase kinase 9 (MAP3K9, Homo sapiens, UniProt P80192) | 100
Phosphatidylinositol 4,5-bisphosphate 3-kinase catalytic subunit delta isoform (PIK3CD, Homo sapiens, UniProt O00329) | 100
Serine/threonine-protein kinase 38 (STK38, Homo sapiens, UniProt Q15208) | 100
Serine/threonine-protein kinase 24 (STK24, Homo sapiens, UniProt Q9Y6E0) | 82
Testis-specific serine/threonine-protein kinase 1 (TSSK1B, Homo sapiens, UniProt Q9BXA7) | 63
Mitogen-activated protein kinase kinase kinase 13 (MAP3K13, Homo sapiens, UniProt O43283) | 76

For quick reference, copied from above (set 2):
target | remaining activity [%]
Serine/threonine-protein kinase TAO3 (TAOK3, Homo sapiens, UniProt Q9H2K8) | 91.3
Tyrosine-protein kinase ITK/TSK (ITK, Homo sapiens, UniProt Q08881) | 98.6
Insulin receptor (INSR, Homo sapiens, UniProt P06213) | 100
Tyrosine-protein kinase Fyn (FYN, Homo sapiens, UniProt P06241) | 102
Homeodomain-interacting protein kinase 1 (HIPK1, Homo sapiens, UniProt Q86Z02) | 102
Proto-oncogene tyrosine-protein kinase Src (SRC, Homo sapiens, UniProt P12931) | 86.7
Tyrosine-protein kinase Fer (FER, Homo sapiens, UniProt P16591) | 89.4
LIM domain kinase 1 (LIMK1, Homo sapiens, UniProt P53667) | 107
